Published values of several laboratories.
Compare with care: the assays were run in different laboratories. ± marks the error that the study gave.
ABCG2: Broad substrate specificity ATP-binding cassette transporter ABCG2 (ABCG2, Homo sapiens, UniProt Q9UNQ0)
Sequence of UniProt Q9UNQ0 (whole entry, looked up): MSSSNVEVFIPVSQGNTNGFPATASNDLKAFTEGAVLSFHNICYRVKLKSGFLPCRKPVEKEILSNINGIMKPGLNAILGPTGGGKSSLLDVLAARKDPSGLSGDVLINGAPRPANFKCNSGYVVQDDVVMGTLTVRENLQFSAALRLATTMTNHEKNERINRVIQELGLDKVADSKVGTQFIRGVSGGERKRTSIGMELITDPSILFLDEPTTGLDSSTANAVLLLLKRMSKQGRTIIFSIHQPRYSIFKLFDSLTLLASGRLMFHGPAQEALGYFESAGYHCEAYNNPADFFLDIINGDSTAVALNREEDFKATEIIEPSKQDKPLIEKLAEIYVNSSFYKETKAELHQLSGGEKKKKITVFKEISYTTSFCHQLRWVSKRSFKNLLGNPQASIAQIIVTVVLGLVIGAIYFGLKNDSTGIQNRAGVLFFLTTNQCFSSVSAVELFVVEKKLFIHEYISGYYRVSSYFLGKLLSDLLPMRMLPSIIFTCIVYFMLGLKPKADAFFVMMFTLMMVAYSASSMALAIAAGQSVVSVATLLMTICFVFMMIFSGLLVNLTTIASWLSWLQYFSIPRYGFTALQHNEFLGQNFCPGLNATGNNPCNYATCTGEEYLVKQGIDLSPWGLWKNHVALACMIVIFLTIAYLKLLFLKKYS
CYP2C8: Cytochrome P450 2C8 (CYP2C8, Homo sapiens, UniProt P10632)
Sequence of UniProt P10632 (whole entry, looked up): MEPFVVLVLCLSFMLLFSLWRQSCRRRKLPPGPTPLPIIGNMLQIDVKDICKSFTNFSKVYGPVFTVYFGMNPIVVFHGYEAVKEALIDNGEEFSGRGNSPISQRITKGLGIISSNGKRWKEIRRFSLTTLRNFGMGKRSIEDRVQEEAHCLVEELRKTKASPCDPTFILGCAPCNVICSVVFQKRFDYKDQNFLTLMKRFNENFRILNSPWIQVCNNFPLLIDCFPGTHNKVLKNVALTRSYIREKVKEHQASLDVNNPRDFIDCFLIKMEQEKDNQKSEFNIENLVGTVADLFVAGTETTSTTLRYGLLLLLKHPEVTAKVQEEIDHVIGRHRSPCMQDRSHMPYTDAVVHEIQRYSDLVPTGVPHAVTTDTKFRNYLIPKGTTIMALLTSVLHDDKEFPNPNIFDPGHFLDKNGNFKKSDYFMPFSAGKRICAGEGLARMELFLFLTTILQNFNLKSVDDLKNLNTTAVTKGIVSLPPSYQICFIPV
CYP2C9: Cytochrome P450 2C9 (CYP2C9, Homo sapiens, UniProt P11712)
Sequence of UniProt P11712 (whole entry, looked up): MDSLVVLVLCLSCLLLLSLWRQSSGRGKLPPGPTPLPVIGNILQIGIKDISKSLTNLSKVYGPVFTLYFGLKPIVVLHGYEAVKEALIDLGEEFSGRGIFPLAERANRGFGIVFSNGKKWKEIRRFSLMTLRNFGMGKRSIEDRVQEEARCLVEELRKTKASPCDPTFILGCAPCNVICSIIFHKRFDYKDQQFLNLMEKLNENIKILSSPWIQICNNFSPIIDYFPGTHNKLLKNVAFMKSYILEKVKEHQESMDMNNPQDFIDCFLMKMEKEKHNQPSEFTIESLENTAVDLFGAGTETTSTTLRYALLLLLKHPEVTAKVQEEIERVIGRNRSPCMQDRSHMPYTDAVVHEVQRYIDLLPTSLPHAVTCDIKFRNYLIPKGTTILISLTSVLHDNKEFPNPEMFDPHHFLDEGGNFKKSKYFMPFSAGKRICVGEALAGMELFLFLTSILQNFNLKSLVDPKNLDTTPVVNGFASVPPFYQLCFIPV
CYP3A4: Cytochrome P450 3A4 (CYP3A4, Homo sapiens, UniProt P08684)
Sequence of UniProt P08684 (whole entry, looked up): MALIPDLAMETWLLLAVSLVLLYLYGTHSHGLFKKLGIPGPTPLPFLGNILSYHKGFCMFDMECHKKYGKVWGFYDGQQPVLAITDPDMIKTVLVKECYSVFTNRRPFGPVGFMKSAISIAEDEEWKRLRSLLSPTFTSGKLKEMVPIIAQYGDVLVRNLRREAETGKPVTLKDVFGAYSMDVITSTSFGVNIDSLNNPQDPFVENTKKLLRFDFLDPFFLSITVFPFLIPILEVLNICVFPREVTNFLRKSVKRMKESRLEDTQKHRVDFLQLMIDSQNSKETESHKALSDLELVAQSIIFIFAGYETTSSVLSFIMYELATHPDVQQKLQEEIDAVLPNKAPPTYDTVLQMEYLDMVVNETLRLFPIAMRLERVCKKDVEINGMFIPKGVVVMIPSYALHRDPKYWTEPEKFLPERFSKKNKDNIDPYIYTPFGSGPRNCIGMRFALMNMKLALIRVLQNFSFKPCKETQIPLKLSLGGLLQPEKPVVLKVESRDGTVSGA
Sequence of UniProt P33261 (whole entry, looked up): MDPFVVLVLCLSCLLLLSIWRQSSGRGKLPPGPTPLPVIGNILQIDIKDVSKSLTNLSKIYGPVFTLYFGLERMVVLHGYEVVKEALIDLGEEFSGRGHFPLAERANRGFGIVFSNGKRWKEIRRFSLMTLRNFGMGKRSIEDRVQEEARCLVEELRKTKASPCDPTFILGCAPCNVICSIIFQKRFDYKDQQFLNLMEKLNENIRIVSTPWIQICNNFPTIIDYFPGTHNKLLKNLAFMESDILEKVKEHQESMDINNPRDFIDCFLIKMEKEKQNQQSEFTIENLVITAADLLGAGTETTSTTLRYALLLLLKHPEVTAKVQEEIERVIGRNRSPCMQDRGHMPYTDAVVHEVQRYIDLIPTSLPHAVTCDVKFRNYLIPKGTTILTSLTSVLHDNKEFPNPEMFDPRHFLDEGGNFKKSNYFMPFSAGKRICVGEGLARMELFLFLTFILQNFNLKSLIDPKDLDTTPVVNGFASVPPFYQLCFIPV

| SMILES | tested on | assay | test system | conditions | how to read | measurement | value |
| --- | --- | --- | --- | --- | --- | --- | --- |
| C=C(C)[C@@H]1CCC(C)=C[C@H]1c1c(O)cc(CCCCC)cc1O | Cytochrome P450 2C19 (CYP2C19, Homo sapiens, UniProt P33261) |  | human, plasma | arithmetic mean, together with: fluconazole 200 mg once daily |  | half-life | 54.5 h |
| O=C1c2ccccc2-c2c1c1c(O)cc(-c3ccccc3)cc1n2CCc1ccccc1 | ABCG2 | mitoxantrone efflux, inhibitor, flow cytometry | HEK293 transfected with ABCG2 | 10 µM, 30 min, together with: mitoxantrone 5 µM | reference: Ko143 1 µM | inhibition | 111 ± 2% |
| c1ccc(C2(N3CCCCC3)CCCCC2)cc1 | CYP2B6 (baboon) | hydroxybupropion formation | baboon liver microsomes | concentration not given, 30 min, together with: bupropion |  | inhibition | 80% |
| C=C[C@H]1CN2CCc3c([nH]c4cccc(OC)c34)[C@@H]2C[C@@H]1/C(=C\OC)C(=O)OC | CYP2C8 | enzyme activity, inhibitor | human, liver microsomes |  |  | IC50 | > 45 µM |
| CN[C@@](C)(C[18F])C(=O)O |  |  | SCID mouse A549 xenograft, brain | 120 min, post injection |  | tissue uptake | 0.4 ± 0.1 %ID/g |
| COc1cccc(CCn2c3c(c4c(O)cccc42)C(=O)c2ccccc2-3)c1 | ABCG2 | mitoxantrone efflux, inhibitor, flow cytometry | HEK293 transfected with ABCG2 | 10 µM, 30 min, together with: mitoxantrone 5 µM | reference: Ko143 1 µM | inhibition | 100 ± 10% |
| CNC(=O)O/N=C/C(C)(C)S(C)(=O)=O | CYP2C9 | inhibitor | human liver microsomes | 10 µM, pH 7.4, together with: diclofenac |  | inhibition | 6.09% |
| COc1ccccc1CCn1c2c(c3c(O)cccc31)C(=O)c1ccccc1-2 | ABCG2 | mitoxantrone efflux, inhibitor, flow cytometry | HEK293 transfected with ABCG2 | 10 µM, 30 min, together with: mitoxantrone 5 µM | reference: Ko143 1 µM | inhibition | 85 ± 11% |
| CC[C@H]1CN2CCc3c([nH]c4cccc(OC)c34)[C@@H]2C[C@@H]1/C(=C\OC)C(=O)OC | CYP2C8 | enzyme activity, inhibitor | human, liver microsomes |  |  | IC50 | > 45 µM |
| CNC(=O)O/N=C/C(C)(C)SC | CYP2C9 | inhibitor | human liver microsomes | 2 µM, pH 7.4, together with: diclofenac |  | inhibition | < 0% |
| OCc1ncc2n1-c1ccc(Cl)cc1C(c1ccccc1F)=NC2 | CYP3A4 |  | human | oral, 75 mg once daily, day -1, molecular-weight corrected, geometric mean, together with: midazolam 7.5 mg | reference: compound AUC over midazolam AUC | metabolic AUC ratio | 0.391 |
| CNC(=O)O/N=C/C(C)(C)[S+](C)[O-] (stereo not shown) | CYP2C9 | inhibitor | human liver microsomes | 2 µM, pH 7.4, together with: diclofenac |  | inhibition | 7.71% |
| Cc1ncc2n1-c1ccc(Cl)cc1C(c1ccccc1F)=NC2 | CYP3A4 | ligand, stopped flow |  | 40 µM, pH 7.4, opt-WT variant |  | kslow | 0.021 ± 0.003 s⁻¹ |
